Published values of several laboratories.
± marks the error that the study gave.

COc1cc2c(Oc3ccc4[nH]c(C)cc4c3F)ccnc2cc1OCC1(N)CC1  Vomiting incidence (paediatric recurrent refractory sarcoma; 10 mg): 50%
O=C(Nc1ccccc1)C1CCN(C(=O)Oc2cccnc2)CC1  adverse event Constipation (healthy women; oral, 60 mg, 7 days): 0%
COc1cccc2c1C(=O)c1c(O)c3c(c(O)c1C2=O)C[C@@](O)(/C(CO)=N/NC(=O)CCCCCN1C(=O)C=CC1=O)C[C@@H]3O[C@H]1C[C@H](N)[C@H](O)[C@H](C)O1  payload release (HPLC; PBS; 200 µM, pH 6.5, 37 °C): > 90%
CCc1ccc(CC/C=C/c2ccc3c(c2)C(=O)CC3)cc1  MCH (Sprague-Dawley rat, male, blood; oral, 120 mg/kg/day, 14 days): 19.6 pg
CC(C)[C@@H]1NC(=O)CNC(=O)[C@H](CC(N)=O)NC(=O)[C@H](CCCNC(=N)N)NC(=O)[C@H](Cc2ccc(O)cc2)NC(=O)[C@H](C(C)C)NC(=O)[C@@H](NC(=O)[C@@H](NC(=O)[C@H](CC(N)=O)NC(=O)[C@H](Cc2c[nH]c3ccccc23)NC(=O)[C@H](C)NC(=O)[C@H](Cc2ccccc2)NC(=O)CN)C(C)C)CSSC[C@@H](C(=O)N[C@@H](Cc2cnc[nH]2)C(=O)N[C@@H](CCCNC(=N)N)C(=O)N[C@@H](CCCNC(=N)N)C(=O)N[C@@H](C)C(=O)N[C@@H](CC(N)=O)C(N)=O)NC(=O)[C@H](C(C)C)NC(=O)[C@H](CCCNC(=N)N)NC1=O  globulin (ICR mouse, blood; intramammary, 10 mg/kg, day 5, 3 d dosing): 18.9 ± 0.21 g/L
CN1CC[C@@H](c2c(O)cc(O)c3c(=O)cc(-c4ccc(C(F)(F)F)cc4Cl)oc23)[C@@H]1CO  patients with adverse event (measured: Lymphopenia; relapsed B-cell malignancies; oral, 100 mg, grade 3-4, intermittent dosing): 0%
O=C(O)C(O)(c1cccs1)c1cccs1  plasma concentration (human, plasma; 1 mg once daily of parent drug, 5 days): not detected
COc1ccnc(C(=O)N[C@H]2COC(=O)[C@H](Cc3ccccc3)[C@@H](OC(=O)C(C)C)[C@H](C)OC2=O)c1OCOC(=O)C(C)C  NOEC (Colinus virginianus; concentration not given, long-term toxicity): 12.1 mg/kg bw/day
CN1CCN(S(=O)(=O)c2cc([N+](=O)[O-])ccc2N(CCOS(C)(=O)=O)CCOS(C)(=O)=O)CC1  globulin (naive NOD/SCID mice, pooled blood; intraperitoneal, 12.5 mg/kg, week 4): 15 g/L
Cc1cc(C)c(CNC(=O)c2cc(Cl)c3c(c2C)O[C@@](C)([C@H]2CC[C@H](N(C)C)CC2)O3)c(=O)[nH]1  grade 5 acute myeloid leukaemia incidence (relapsed/refractory NHL patients; dose not given, all TEAEs, safety set): 0%
O=C(O)CCCOc1ccc(F)cc1-c1cc(-c2ccccc2C(F)(F)F)n(-c2ccccc2)n1  relative pituitary weight (Crl:CD(SD) rat, male; intravenous, 25 µg/kg, 14 days post-dose; reference: body weight): 4 ± 0.3 mg%
C[C@]1(CO)Cc2ncn(-c3ccc(C#N)c(Cl)c3)c2C(=O)O1  subjects with drug-related urine abnormality (human; 20 mg multiple doses, fasted): 0%
CO[C@H]1C[C@@H]2CC[C@@H](C)[C@@](O)(O2)C(=O)C(=O)N2CCCC[C@H]2C(=O)O[C@H]([C@H](C)C[C@@H]2CC[C@@H](OC(=O)NCCOCCOCCOCCOCCOCCOCCOCCOCCC(=O)N3CCc4cc(Cn5nc(-c6ccc7oc(N)nc7c6)c6c(N)ncnc65)ccc4C3)[C@H](OC)C2)C[C@@H](O)[C@H](C)/C=C(\C)[C@@H](O)[C@@H](OC)C(=O)[C@H](C)C[C@H](C)/C=C/C=C/C=C/1C  AE leading to dose reduction (patients with advanced solid tumours; intravenous, 6 mg weekly, grade 3 or higher): 0%
COc1ccc(-c2c(-c3ccc(C#N)c(F)c3)nc(N3CCC(N)CC3)n(C)c2=O)cc1F  grade 3-4 TRAE incidence (measured: decreased appetite; neuroendocrine neoplasm patients; oral, 60 mg, dose expansion): 0%

A few entries again:
C[C@]1(CO)Cc2ncn(-c3ccc(C#N)c(Cl)c3)c2C(=O)O1  subjects with drug-related urine abnormality (human; 20 mg multiple doses, fasted): 0%
